Experimental data gathered from unrelated publications.
Compare with care: the assays were run in different laboratories. Numbers after ± are the reported error.

C[C@H](CCC(=O)N[C@@H](CCC(=O)Nc1cccc(O)c1)C(=O)O)[C@H]1CC[C@H]2[C@@H]3[C@H](O)C[C@@H]4C[C@H](O)CC[C@]4(C)[C@H]3CC[C@]12C  Kt (SLC10A2 (Homo sapiens, UniProt Q12908); transport, substrate, LC-MS/MS; ASBT-MDCK cells): 3.29 µM
C=CCC(=N)NCCC[C@H](N)C(=O)O  IC50 ratio (Nitric oxide synthase 1 (Mus musculus, UniProt Q9Z0J4); cGMP accumulation, inhibitor; mouse aorta and hippocampus; baseline: aorta over hippocampus): 1.6
O=P(O)(O)O[C@@H]1[C@@H](O)[C@H](O)[C@H](O)[C@H](O)[C@H]1OP(=O)(O)O  Hill coefficient (Inositol 1,4,5-trisphosphate-gated calcium channel ITPR1, IP3-binding core (Itpr1, Rattus norvegicus, UniProt P29994, R568Q); binding, 3H-IP3 competition; IP3-binding core IBC^R568Q): 1.1 ± 0.3
CC(Cc1ccc(Cl)cc1)=C(c1ccc(Cl)cc1)c1ccc(OCCCN(C)C)cc1  fold activation (Estrogen receptor (ESR1, Homo sapiens, UniProt P03372); reporter gene, agonist, yeast estrogen screen; 1 µM; baseline: DMSO): 1.14 ± 0.01 fold
O=c1cc(-c2ccc(O)c(-c3c(-c4ccc(O)cc4)oc4cc(O)cc(O)c4c3=O)c2)oc2cc(O)cc(O)c12  Hill coefficient (PRXC1A (Armoracia rusticana, UniProt P00433); substrate, Hill kinetic model; product formation, with: hydrogen peroxide NG): 2.94
CCCn1c(=O)c2[nH]c(-c3ccc(OCC(=O)NCCNC(=O)CCCCCCCNS(=O)(=O)c4cccc5c(N(C)C)cccc45)cc3)nc2n(CCC)c1=O  maximal inhibition (ADORA1 (Homo sapiens, UniProt P30542); radioligand binding, whole-cell binding; CHO-A1; 2 h, with: [3H]DPCPX; baseline: specific binding, 10 µM XAC): 91 ± 0.5%
CCNS(=O)(=O)c1ccc(COc2ccc3nc4ccc(=O)cc-4oc3c2)cc1  oligomer fraction (DDR2 (Homo sapiens, UniProt Q16832); size exclusion chromatography, refers to: DDR2 extracellular domain; 1 µM, 1 h): decreased
CCC(C)/C=C/C(C)=C\C=C\C(C)=C\C=O (stereo not shown)  cell surface expression (Rhodopsin (RHO, Homo sapiens, UniProt P08100, P23H); pharmacological chaperone, immunostaining, nonpermeabilized cells; 661W; 2.5 µM, 16 h; baseline: untreated cells): ~2 fold
NCCCC[C@H](NC(=O)[C@H](C/C=C\C[C@H](NC(=O)[C@@H]1CCCN1)C(=O)N[C@@H](CCCCN)C(=O)NCCCN)NC(=O)[C@@H]1CCCN1)C(=O)NCCCN  residence time ((CCUG)10 RNA; SPR): 2 s
CC(=O)N[C@@H](COP(=O)(O)O)C(=O)N1CCC[C@H]1C(=O)N[C@H](C(=O)N[C@@H](Cc1ccccc1)C(=O)O)[C@@H](C)O  heat capacity change (Breast cancer type 1 susceptibility protein, tandem BRCT domains (BRCA1, Homo sapiens, UniProt P38398); binding, isothermal titration calorimetry; concentration not given): -350 ± 69 cal/(mol·K)
CCC(=C(c1ccc(O)cc1)c1ccc(OCCN(C)CCOCCOCCOCCOCCOCCN(C)CCOc2ccc(C(=C(CC)c3ccccc3)c3ccc(O)cc3)cc2)cc1)c1ccccc1 (mixture of isomers)  relative binding affinity (ESR2 (Homo sapiens, UniProt Q92731); radioligand competition binding; concentration not given, Z-E/E isomer form, with: [3H]estradiol tracer; baseline: estradiol): 3.2 ± 1%
Nc1nc2cc(CC[C@H]3C[C@@H](n4ccc5c(N)ncnc54)[C@H](O)[C@@H]3O)ccc2cc1Br  k_inact/Ki (Protein arginine N-methyltransferase 5, with WDR77 (PRMT5, Homo sapiens, UniProt O14744); inhibitor, RapidFire MS; with: MEP50): 610000 M⁻¹ s⁻¹
CC[C@H](C)[C@@H]1NC(=O)[C@H](Cc2ccc(OC)cc2)NC(=O)CC2(CCCCC2)SSC[C@@H](C(=O)N2CCC[C@H]2C(=O)N[C@@H](CCCN)C(=O)N[C@@H](Cc2ccc(O)c(I)c2)C(N)=O)NC(=O)[C@H](CC(N)=O)NC(=O)[C@H]([C@@H](C)O)NC1=O  Bmax (oxytocin receptor (Mesocricetus auratus, UniProt A0A1U7Q6Y0); saturation binding; hamster brain sections): 2960 DPM/0.04 mg
O=c1c(/C=N/NC(=S)N/N=C/c2cc(Cl)ccc2O)coc2ccccc12  stability constant (SOD1 (Bovine, UniProt P00442); binding, fluorescence anisotropy; pH 7.4, 37 °C): 1.91e+07 M⁻¹
N=C(N)NCCC[C@H](NC(=O)[C@H](Cc1ccccc1)NC(=O)[C@@H](N)CO)C(=O)N[C@@H](CC(N)=O)C(N)=O  maximal response (Neuropeptide S receptor (Mus musculus, UniProt Q8BZP8); calcium mobilization, agonist; HEK293T; unit not given; baseline: maximal assay window): 0.86
CCOC(=O)CCC(NC(=O)C(NC(=O)c1c(C)nn(-c2ccc(F)cc2)c1C)C(C)C)C(=O)OCC (stereo not shown)  activity (NOD1 (Homo sapiens, UniProt Q9Y239); NF-κB reporter gene, agonist; HEK-Blue cells expressing NOD1; 10 µM, 16 h): inactive
COc1cc(C2CC(=O)Nc3nc(N)[nH]c(=O)c32)ccc1O (stereo not shown)  ΔG (uncharacterized protein (Leishmania donovani, UniProt A0A3Q8IA09); competitive ITC; with: glutamate 60 µM): -7.65 kcal/mol
CCN(CC)C(=O)c1ccc(O)c(OC)c1  contrast (Heat shock protein HSP 90-alpha, N-terminal domain (HSP90AA1, Homo sapiens, UniProt P07900); binding, ligand-observed NMR titration; ligand to protein ratio 366): 41%
CCCCCCCCO[C@@H]1O[C@H](CO)[C@H](O)[C@H](O[C@H]2O[C@H](CO)[C@H](O)[C@H](O)[C@H]2O)[C@H]1O[C@@H]1O[C@@H](C)[C@@H](O)[C@@H](O)[C@@H]1O  koff (ABO (Homo sapiens, UniProt P16442, G235S/G268A/L266M/R176G); methyl-TROSY NMR titration lineshape analysis; apo enzyme): 2900 ± 100 s⁻¹
Cc1nc(/N=N/c2cc3c(S(=O)(=O)O)cc([N+](=O)[O-])cc3cc2S(=O)(=O)O)c(COP(=O)(O)O)c(C=O)c1O  maximal inhibition (Neutrophil elastase (ELANE, Homo sapiens, UniProt P08246); enzyme activity, inhibitor, chromogenic substrate hydrolysis; pH 7.4, 37 °C, 100 mM NaCl, with: substrate S-1384): 105 ± 4.4%
CCOc1cc(C(C)(C)C)ccc1C1=N[C@@H](c2ccc(Cl)cc2)[C@@H](c2ccc(Cl)cc2)N1C(=O)N1CCN(CC(=O)NCCOCCOCCOCCNC(=O)CN2CCN(C(=O)N3C(c4ccc(C(C)(C)C)cc4OCC)=N[C@@H](c4ccc(Cl)cc4)[C@H]3c3ccc(Cl)cc3)CC2=O)C(=O)C1  time to degradation (MDM2 (Homo sapiens, UniProt Q00987); degrader, Western blot; A549): ≤ 2 h
CCCCCCOc1ccc(C(=O)OCC[N+]2(C)CC=CCC2)cc1 (stereo not shown)  dissociation half-time (CHRM1 (Homo sapiens, UniProt P11229); recovery of [3H]NMS binding after washing; membranes; 100 µM): 4.5 ± 0.4 h
[3H]C([3H])([3H])c1cnccc1CN1C[C@@H](c2cc(F)c(F)c(F)c2)CC1=O  Bmax ratio (SV2A (Homo sapiens, UniProt Q7L0J3); radioligand binding, saturation binding; frontal cortex homogenate; baseline: Alzheimer disease over control): ~1.12 fold
CN(C)CCCOc1ccc2cc(CN)ccc2c1  relative kcat/Km (Primary amine oxidase, liver isozyme (Bos taurus, UniProt Q29437); substrate, fluorescence; baseline: benzylamine): 2700
CN1CCC=C(c2nsnc2OCCCN2CCN(CCCCC3CCN(CC(=O)N4c5ccccc5NC(=O)c5ccccc54)CC3)CC2)C1  selectivity ratio (CHRM5 (Homo sapiens, UniProt P08912); radioligand competition binding; CHO cells; baseline: Ki M5 over Ki M2): 430
CCCNCC(=O)O  hypochromicity (Albumin (ALB, Homo sapiens, UniProt P02768); binding, UV-vis absorption titration; concentration not given): 38.3%
O=C(O[C@H](CO)C(F)(F)F)N1C[C@@H]2[C@H](C1)[C@H]2c1ccn(-c2ccc([18F])nc2)n1  reduction of brain uptake AUC (Monoglyceride lipase (Rattus norvegicus, UniProt Q8R431); PET; Sprague-Dawley rats, whole brain; dose not given, with: PF-06795071 3 mg/kg iv; baseline: baseline): 45%
CNc1ccccc1C(=O)O[C@H]1C[C@H](n2cnc3c(N)ncnc32)O[C@@H]1COP(=O)(O)OP(=O)(O)O  association rate constant (Unconventional myosin-Va (Gallus gallus, UniProt Q02440, D297C/G292C/I296C/S293C/V295G); stopped-flow FRET; 15 °C, with: MgCl2 10 mM): 2.49e+06 ± 150000 M⁻¹ s⁻¹

For quick reference, copied from above:
CN(C)CCCOc1ccc2cc(CN)ccc2c1  relative kcat/Km (Primary amine oxidase, liver isozyme (Bos taurus, UniProt Q29437); substrate, fluorescence; baseline: benzylamine): 2700
CN1CCC=C(c2nsnc2OCCCN2CCN(CCCCC3CCN(CC(=O)N4c5ccccc5NC(=O)c5ccccc54)CC3)CC2)C1  selectivity ratio (CHRM5 (Homo sapiens, UniProt P08912); radioligand competition binding; CHO cells; baseline: Ki M5 over Ki M2): 430
